# Measured values of several laboratories.
# Lines come from different studies, so protocols differ. ± marks the error that the study gave.
# Cell line: MCF7
Structure (SMILES),test,conditions,how to read,endpoint,result
CC(=O)c1nn(-c2ccccc2Cl)/c(=N/N=C(\C)c2ccc(NC(=O)c3ccccc3)cc2)s1,MTT,10 µM,,cytotoxicity,94.2%
Cc1nc(NC(=O)N2CCC[C@H]2C(N)=O)sc1-c1ccnc(C(C)(C)C(F)(F)F)c1,"western blot, refers to: phospho-S6 Ser235/Ser236",2 h,,IC50,267 nM
COc1ccc(-n2nc(C(C)=O)s/c2=N\N=C(/C)c2ccc(NC(=O)c3ccccc3)cc2)cc1,,10 µM,,viability,2.46%
COc1ccc(COC[C@@](O)(CNCc2ccccc2)[C@@H]2CC[C@@H](C)C[C@H]2OCc2ccc(OC)cc2)cc1,"cell growth, inhibitor, MTT",72 h,,IC50,1430 nM
CCOC(=O)c1nn(-c2cccc(Cl)c2)/c(=N/N=C(\C)c2ccc(NC(=O)c3ccccc3)cc2)s1,MTT,0.625 µM,,cytotoxicity,97.4%
C=CC(=O)c1cccnc1Nc1cc(C(F)(F)F)ccc1OC,"reporter gene, refers to: TEAD luciferase",100 µM,,inhibition,98%
CC(C)(C)OCC(NC(=O)c1cc(Cl)ccc1OCCNC(=O)OC(C)(C)C)C(=O)Nc1ccc([N+](=O)[O-])cc1Cl (stereo in doubt),,"up to 10 µM, 72 h",,antiproliferative activity,inactive
C=CC(=O)c1cccnc1Nc1cc(NC(C)=O)ccc1OC,firefly luciferase reporter,"25 µM, 6 h",relative to: vehicle,TEAD reporter activity,62.2 ± 1%
CC(=O)c1sc(=NN=C(C)c2c(O)c3ccccc3oc2=O)[nH]c1C,"cell growth, MTT",,relative to: IC50 BJ-1 over MCF7,selectivity index,> 3.91
CCCN1CCN(c2ccc3nc(-c4ccc5nc(-c6cc(OC)ccc6OC)[nH]c5c4)[nH]c3c2)CC1,SRB,"10 µM, 48 h",,growth percent,-63.3%
COc1ccc(C(F)(F)F)cc1Nc1ncccc1C(=O)O,firefly luciferase reporter,"100 µM, 6 h",relative to: vehicle,TEAD reporter activity,80.5 ± 6.5%
Cc1cc(=O)[nH]c(=O)n1Cc1cn(-c2cc3ccccc3oc2=O)nn1,NCI60 single-dose screen,10 µM,,growth percentage,89.8%
O=[N+]([O-])c1ccc(O)c(C=NNc2ccc(Br)cc2)c1,Muse cell cycle,"IC50, 24 h",,cells in G0/G1 phase,63.8%
OCc1ccc(Nc2ccc3c(Nc4cccc(C(F)(F)F)c4)ncnc3c2)cc1,annexin V/DAPI,"concentration not given, 24 h",,necrotic cells,8.27%
COc1ccc(OC)c(-c2nc3ccc(-c4nc5ccc(N6CCN(C)CC6)cc5[nH]4)cc3[nH]2)c1,SRB,"10 µM, 48 h",,growth percent,75.5%
C=CC(=O)c1cccnc1Nc1cc(Cl)ccc1OC,firefly luciferase reporter,"25 µM, 6 h",relative to: vehicle,TEAD reporter activity,86.4 ± 9%
CC(=O)c1nn(-c2ccc(C)cc2)/c(=N/N=C(\C)c2ccc(NC(=O)c3ccccc3)cc2)s1,MTT,10 µM,,cytotoxicity,93.5%
O=C1CCCCC1=C1Sc2nc3ccc(S(=O)(=O)N4CCCC4)cc3nc2S1,flow cytometry,3.82 µM,relative to: untreated,S-phase cells,44.5%
O=C(Nc1nnc2n3c(Cc4ccccc4)n[nH]c3nc(-c3ccc(Cl)cc3)c1-2)c1ccccc1,SRB,"10 µM, NCI60 single-dose screen",relative to: untreated,cell growth,91.4%
CC(=O)c1nn(-c2ccc(Cl)cc2)/c(=N/N=C(\C)c2ccc(NC(=O)c3ccc(Cl)cc3)cc2)s1,,1.25 µM,,toxicity,0.733%
CC(=NN=C1NC(=O)C(C)S1)c1c(O)c2ccccc2oc1=O (centres unmarked),"cell growth, MTT",,relative to: IC50 BJ-1 over MCF7,selectivity index,> 3.65
COc1ccc(-n2nc(C(C)=O)s/c2=N\N=C(/C)c2ccc(NC(=O)c3ccc(Cl)cc3)cc2)cc1,,2.5 µM,,viability,6.47%
CC/C(=C(\c1ccccc1)c1ccc(OCCN(C)C)cc1)c1ccccc1,"RNA-seq, refers to: SSPO mRNA","1 µM, 24 h, E2-suppressed gene",relative to: DMSO vehicle,log2 fold change,-1.05

# Some of these lines once more:
Structure (SMILES),test,conditions,how to read,endpoint,result
OCc1ccc(Nc2ccc3c(Nc4cccc(C(F)(F)F)c4)ncnc3c2)cc1,annexin V/DAPI,"concentration not given, 24 h",,necrotic cells,8.27%
COc1ccc(OC)c(-c2nc3ccc(-c4nc5ccc(N6CCN(C)CC6)cc5[nH]4)cc3[nH]2)c1,SRB,"10 µM, 48 h",,growth percent,75.5%
